Measured values of several laboratories.
Each line is one published result; not all experiments were run side by side. ± gives the spread as reported.

O=C(O)C1CN(Cc2ccc(-c3noc(-c4ccc(OCC[18F])c(C(F)(F)F)c4)n3)cc2)C1 — tracer uptake (rat, brain; intravenous, 2 h): 0.015 %ID/g
[11CH3]c1ccc2nc(C3CCC3)n(-c3ccc4[nH]ncc4c3)c2n1 — effective dose (extrapolated from mouse biodistribution; standard human): 4.4 µSv/MBq
Cc1ccc(OCC(=O)O)cc1 — AUC(0-last) ratio (Sprague-Dawley rat, male, plasma; oral gavage, 100 mg/kg of parent drug; reference: compound over parent drug): 949
CC[C@@H](C)N([11CH3])C(=O)c1nc(-c2ccccc2Cl)c2ccccc2n1 — plasma free fraction (ultrafiltration; rhesus monkey, plasma; baseline scan): 0.08
C#CCOc1ccc(/C=C2\SC(=O)N(CC(=O)NCc3ccccc3)C2=O)cc1 — correlation volume (inverse Kirkwood-Buff integrals; binary solvent mixture; concentration not given, 298.15 K, mole fraction x1 0.65): 4720 cm³/mol
CCCCN1C(=O)c2cccc3c(NCCCCN4CCOCC4)ccc(c23)C1=O — fluorescence brightness (aqueous medium; pH 6): 4080 M⁻¹ cm⁻¹
C/C(=N\OCCN1CCCC1)c1ccc(C(F)(F)F)cc1 — metabolic stability ratio (liver microsomes; reference: human over mouse): ~3 fold
O=C(O)[C@@H]1C[C@@H](O)CN1C(=O)[C@@H]1CCCN1 — pKa2 (potentiometric titration; water; 37 °C, 0.15 mol/dm3 NaCl): 5.44
CCCC[C@H](NC(=O)CNC(=O)CNC(=O)CN1CCN(CC(=O)O)CCN(CC(=O)O)CC1)C(=O)N[C@H]1CC(=O)NCCCC[C@@H](C(N)=O)NC(=O)[C@H](Cc2c[nH]c3ccccc23)NC(=O)[C@H](CCCNC(=N)N)NC(=O)[C@@H](Cc2ccccc2)NC(=O)[C@H](Cc2c[nH]cn2)NC1=O [gallium-67 labelled] — tumour to skin uptake ratio (C57 mice, B16/F1 melanoma; 2 h): 46.4
NC12CNCCNCC(NCc3ccc(CNC(=O)CCCC(=O)NCc4ccc(-c5nncnn5)cc4)cc3)(CNCCNC1)CNCCNC2.[64Cu+2] — absorbed dose (OLINDA dosimetry; heart wall; pretargeting, 48 h interval): 0.0379 rad/mCi
CC(C)[C@H](NC(=O)CNC(=O)[C@H](CCC(N)=O)NC(=O)[C@H](C)N)C(=O)O — AUC(0-inf) (LC-MS/MS; human, plasma; intravenous, 20 mg/kg three times daily, day 2, first dose, 10 min infusion, geometric mean): 393 ng·h/mL
CC(C)[C@H](NC(=O)[C@@H]1CCCN1C(=O)[C@H](CCCNC(=N)N)NC(=O)[C@H](CS)NC(=O)[C@H](Cc1c[nH]c2ccccc12)NC(=O)[C@H](CCCNC(=N)N)NC(=O)[C@@H](Cc1ccccc1)NC(=O)[C@H](Cc1c[nH]cn1)NC(=O)[C@H](CCC(=O)O)NC(=O)[C@H](CS)NC(=O)[C@H](CS)NC(=O)[C@@H]1CC(=O)N[C@@H](CCCNC(=N)N)C(=O)NCC(=O)N[C@@H](CC(=O)O)C(=O)N[C@H](Cc2ccc(O)cc2)C(=O)N1)C(N)=O [technetium-99m labelled] — tumour to tissue ratio (C57 mouse, female, B16/F1 melanoma; intravenous, 0.037 MBq, 0.5 h; reference: tumour over liver): 3.47
CCCC[C@H](NC(C)=O)C(=O)N[C@H]1CC(=O)NCCCC[C@@H](C(=O)N[C@@H](C(=O)N2CCC[C@@H]2C(N)=O)C(C)C)NC(=O)[C@H](Cc2c[nH]c3ccccc23)NC(=O)[C@H](CCCN=C(N)N)NC(=O)[C@@H](Cc2ccc3ccccc3c2)NC(=O)[C@@H]2CCCN2C1=O — plasma histamine (healthy dogs, plasma; subcutaneous, 2.25 mg/kg per day, day 1, 2 h post-dose, median): 9.25 ng/mL
CN1CCC[C@]1(C)/C=C/S(=O)(=O)NC(=O)Nc1c2c(cc3c1CCC3)CCC2 — AUC(0-tau) (human, plasma; oral, 12.5 mg twice daily, day 1, tau 12 h, multiple ascending dose): 7700 ng·h/mL
COc1ccc(/C=C/c2ccc(-c3ccc(C)cn3)nc2)cc1 — radiative decay rate constant (TCSPC; hexanes): 0.65 ns⁻¹
CCCC(CCC)NC(=O)c1ccc(OS(=O)(=O)O)c(OC)c1 — Cmax ratio (female Sprague-Dawley rats, plasma; oral, 50 mg/kg of parent drug; reference: 50 over 20 mg/kg dose): 1.49
OCc1cn(Cc2ccc(-c3noc(-c4ccc(OCC[18F])c(C(F)(F)F)c4)n3)cc2)nn1 — tissue uptake (female Lewis rat, lung; intravenous, 120 min): 1.54 ± 0.07 %ID/g
CCCCCCCCCCCCCCCC(=O)N[C@@H](CCCCNC(=O)[C@H](CCCCNC(=O)CCC(=O)NCCN(C)CCNc1ccnc2cc(C(F)(F)F)ccc12)NC(=O)CCC(=O)NCCN(C)CCNc1ccnc2cc(C(F)(F)F)ccc12)C(=O)N[C@@H](CS)C(=O)NCC(=O)NCC(=O)NCC(=O)N[C@@H](C)C(=O)N[C@@H](CCCNC(=N)N)C(=O)N[C@@H](CCCCN)C(=O)N[C@@H](CCCCN)C(=O)N[C@@H](C)C(=O)N[C@@H](C)C(=O)N[C@@H](CCCCN)C(=O)N[C@@H](C)C(=O)N[C@@H](C)C(=O)N[C@@H](CCCNC(=N)N)C(=O)N[C@@H](CCCCN)C(=O)N[C@@H](CCCCN)C(=O)N[C@@H](C)C(=O)N[C@@H](C)C(=O)N[C@@H](CCCCN)C(=O)N[C@@H](C)C(=O)N[C@@H](C)C(=O)N[C@@H](CCCNC(=N)N)C(=O)N[C@@H](CCCCN)C(=O)N[C@@H](CCCCN)C(=O)N[C@@H](C)C(=O)N[C@@H](C)C(=O)N[C@@H](CCCCN)C(=O)N[C@@H](C)C(=O)N[C@@H](C)C(=O)N[C@@H](CCCNC(=N)N)C(=O)N[C@@H](CCCCN)C(=O)N[C@@H](CCCCN)C(=O)N[C@@H](C)C(=O)N[C@@H](C)C(=O)N[C@@H](CCCCN)C(=O)N[C@@H](C)C(N)=O — particle diameter (dynamic light scattering; PBS; 40 min, 25 °C, 140:1 ratio, together with: siRNA): 107 ± 3.2 nm
N#Cc1ccc(-c2cc(=O)c3ccc4[nH]c(C(F)(F)F)nc4c3o2)cc1 — hepatocyte stability: stable
CC[C@H](C)[C@H](NC(=O)[C@H](CC(C)C)NC(=O)[C@H](Cc1c[nH]c2ccccc12)NC(=O)[C@H](C)NC(=O)[C@@H](NC(=O)[C@H](Cc1ccccc1)NC(=O)[C@H](CC(=O)O)NC(=O)[C@H](CCCNC(=N)N)NC(=O)[C@H](C)NC(=O)[C@H](C)NC(=O)[C@H](CC(C)C)NC(=O)[C@H](C)NC(=O)[C@H](CC(=O)O)NC(=O)[C@H](CC(C)C)NC(=O)[C@@H](NC(=O)[C@@H](NC(=O)[C@H](C)NC(=O)[C@H](CC(C)C)NC(=O)[C@H](CCC(=O)O)NC(=O)[C@H](CO)NC(=O)[C@H](CO)NC(=O)[C@H](Cc1ccccc1)NC(=O)[C@@H](NC(=O)CNC(=O)[C@H](CCC(=O)O)NC(=O)CNC(=O)[C@@H](N)Cc1cnc[nH]1)[C@@H](C)O)[C@@H](C)O)[C@@H](C)CC)[C@@H](C)CC)C(=O)N[C@@H](C)C(=O)N[C@H](C(=O)N[C@@H](CCCCN)C(=O)N[C@H](C(=O)N[C@H](C(=O)N[C@@H](CC(=O)O)C(=O)N[C@@H](CCCCN)C(=O)N[C@@H](CCCCN)C(=O)N[C@@H](CCCCN)C(=O)N[C@@H](CCCCN)C(=O)N[C@@H](CCCCN)C(=O)N[C@@H](CCCCN)C(N)=O)[C@@H](C)O)[C@@H](C)CC)[C@@H](C)O — AUC(0-tau) (healthy humans, plasma; subcutaneous, 10 mg once weekly, 6 doses, day 36, geometric mean): 0.232 µM·h
COc1cc(C)c(Cc2ccc(O)cc2)cc1[C@@H]1S[C@H](CO)[C@@H](O)[C@H](O)[C@H]1O — urinary excretion 0-24 h (Japanese T2DM patients, urine; 5 mg luseogliflozin, day 1, once daily; reference: dose): 6.7 ± 1.18%
NCCCC(=O)OCC(=O)c1c(F)cc(O)cc1F.O=C(O)C(F)(F)F — quantum yield (photolysis, measured: rearranged acid appearance; aqueous HEPES buffer with LiClO4; pH 8.2): 0.02
CC(C)(O)c1ncc([S@](N)(=O)=NC(=O)Nc2c3c(cc4c2CCC4)CCC3)s1 — AUC(0-tau) (healthy human; oral, 30 mg once daily, day 14, capsule formulation, geometric mean): 29400 ng·h/mL
O=C(CCCCC[N+]#[C][99Tc-5]([C]#[N+]CCCCCC(=O)N[C@H]1C(O)O[C@H](CO)[C@@H](O)[C@@H]1O)([C]#[N+]CCCCCC(=O)N[C@H]1C(O)O[C@H](CO)[C@@H](O)[C@@H]1O)([C]#[N+]CCCCCC(=O)N[C@H]1C(O)O[C@H](CO)[C@@H](O)[C@@H]1O)([C]#[N+]CCCCCC(=O)N[C@H]1C(O)O[C@H](CO)[C@@H](O)[C@@H]1O)[C]#[N+]CCCCCC(=O)N[C@H]1C(O)O[C@H](CO)[C@@H](O)[C@@H]1O)N[C@H]1C(O)O[C@H](CO)[C@@H](O)[C@@H]1O (some centres unmarked) — time to tumour/muscle plateau (SPECT; nude mouse with U87 MG xenograft): ~50 min
CCNC(=O)c1noc(-c2cc(C(C)C)c(O)cc2O)c1NC(=O)CCN1CCOCC1 — apparent volume of distribution (CD1 nude mice, A-431 xenograft, plasma; intraperitoneal, 80 mg/kg): 94.6 L/kg
CC/C=C\C/C=C\C/C=C\C/C=C\C/C=C\CCCCOC(CC)C(=O)O (centres unmarked) — Cmax ratio (Wistar rat, male, portal vein blood, mesenteric lymph; oral, 100 mg/kg; reference: portal vein over mesenteric lymph): ~2 fold
N=C(N)NCCC[C@@H]1NC(=O)[C@H](Cc2c[nH]c3ccccc23)NC(=O)[C@@H](CC2CCCCC2)NC(=O)[C@@H]2CCCN2C(=O)[C@@H](NC(=O)CCc2ccccc2)CCCNC1=O — elimination half-life (C57BL/6J mice, spinal cord; intravenous, 1 mg/kg): 28.4 min
CC(C)c1cnc(-c2cc(Cl)ccc2F)cc1Nc1ccncc1C(=O)NC(CO)CO — patients with treatment-related adverse event (monotherapy, measured: blood alkaline phosphatase increased; human patients; oral, dose not given, grade 5, phase I A): 0%
CC1=CC(C)=[N+]2C1=Cc1ccc(CCC(=O)N3CCN(C(=O)c4cc(Cc5n[nH]c(=O)c6ccccc56)ccc4F)CC3)n1[B-]2(F)F — mean fluorescence (ex vivo imaging; athymic nude NU/J mice, U87 or U-251 xenograft, muscle; intravenous, 2.5 mg/kg, 90 min): 3.45 AU/pixel
Cn1c(=O)oc2ccc(-c3ccc(CC(C#N)NC(=O)C4CNCCCO4)c(F)c3)cc21 (centres unmarked) — subjects with TEAE (measured: anaemia; human; 80 mg single dose, fasted): 0%
NCCCC(=O)OCC(=O)c1ccc(O)cc1F.O=C(O)C(F)(F)F — quantum yield (photolysis, measured: GABA appearance; aqueous HEPES buffer with LiClO4; pH 7.3): 0.2
Cc1[nH]c(/C=C2\C(=O)Nc3ccc(F)cc32)c(C)c1NC(=O)CCN1CCN(C)CC1 — accuracy deviation (dog plasma; 1.00 ng/mL, 24 h in injector after processing, 4 °C): 0.18%

Repeated from above:
[11CH3]c1ccc2nc(C3CCC3)n(-c3ccc4[nH]ncc4c3)c2n1 — effective dose (extrapolated from mouse biodistribution; standard human): 4.4 µSv/MBq
Cc1ccc(OCC(=O)O)cc1 — AUC(0-last) ratio (Sprague-Dawley rat, male, plasma; oral gavage, 100 mg/kg of parent drug; reference: compound over parent drug): 949
CC[C@@H](C)N([11CH3])C(=O)c1nc(-c2ccccc2Cl)c2ccccc2n1 — plasma free fraction (ultrafiltration; rhesus monkey, plasma; baseline scan): 0.08
C#CCOc1ccc(/C=C2\SC(=O)N(CC(=O)NCc3ccccc3)C2=O)cc1 — correlation volume (inverse Kirkwood-Buff integrals; binary solvent mixture; concentration not given, 298.15 K, mole fraction x1 0.65): 4720 cm³/mol
CCCCN1C(=O)c2cccc3c(NCCCCN4CCOCC4)ccc(c23)C1=O — fluorescence brightness (aqueous medium; pH 6): 4080 M⁻¹ cm⁻¹
